Results from different studies.
Every numbered part comes from another study and shows a few of its results, in no order.

Sample 1 — method: universal PBM; form: double-stranded DNA, one strand shown; medium: in vitro; concentration: not given; reading: higher = stronger binding
Target: Sal-like protein 4, full length isoform B (SALL4, Homo sapiens, UniProt Q9UJQ4-2, residues 1-616)
Setting: 8-mer, flanks averaged, mean of replicates
| Strand | E-score |
| --- | --- |
| AGATAACT | 0.136 |
| CTCTTAGA | -0.0825 |
| CCCCGTTA | -0.114 |
| ATGCGCCA | 0.00795 |
| CGCTCGAG | -0.102 |
| ACCTATCG | 0.0242 |
| ACAGGAGA | -0.0648 |
| ACTCTCAA | 0.0994 |
| CGTTGAAG | -0.0473 |
| CCATATCA | 0.248 |
| GACTAAAA | 0.15 |
| AGGAATGA | 0.0633 |
| CTACTTTA | 0.0776 |
| CGTAATTC | -0.00572 |
| ACCCTCAG | -0.0266 |
| AAGGGCAA | -0.105 |
| AATACTAA | 0.271 |

Sample 2 — method: RNA Bind-n-Seq; form: RNA; medium: in vitro; concentration: 365 nM; reference: no-protein control; reading: higher = stronger binding
Target: RNA binding protein fox-1 homolog 2, RRM domain, GST-SBP tag (RBFOX2, Homo sapiens, UniProt O43251-10, residues 100-194)
Setting: natural RNA segment, single round, ends assumed
Constant ends, left off below: GGGAGUUCUACAGUCCGACGAUC … UGGAAUUCUCGGGUGCCAA
Construct (chain): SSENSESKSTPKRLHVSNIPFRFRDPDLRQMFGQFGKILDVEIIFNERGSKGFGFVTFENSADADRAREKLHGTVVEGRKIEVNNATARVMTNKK
| Strand | RBNS enrichment (R) |
| --- | --- |
| GUGAUUCAAAACAAAGGAGAUACUGCAGUGGGAAUUGUGACCUGAGUGACUCUCUGUCAGAACAAAUGCUGUGCAGGUGAUAAAGCUAUGUAUUGGAAGUCAGAUUUCUA | 0.626 |
| GGAUCUGAAAAGACAAGGACUGCUCUAGUGUUCAGGGAUGUAGCUCAGCUUUUGGGCUAGCCCAGGCUUCCCUAAGAUCUGCUUUUUCUAUUUCUCCCAACCAAAUCCUC | 0.289 |
| CGGCAAACCCUAUGAAAGUGGAAUUUUCUAACAAAAUAAACUUGCUUGUUUGAUCUGUUUUCUGUAACUUUUGCUAAAUACUUUAUACAUUUUUCAUGUUAAAGAGCCGU | 0.509 |
| GUCUAGAUUUUAAAUUAACUGUAGAAGGAAGUCAGACACCCACAGGUUUCUUCUAAUCAAGCUUCCACCCUGCAAUGGCUGUCGUGCCAUCUUCCUUCUGUGUUUUACUC | 0.314 |
| AGUCUACAGUAAGAAUGCCUGCUUCCAAGACUCAGAUACAUAGGGACGUUUUUACCCGUUCCGUAGACUCUGUAACUGUCAGCCCAGUUUGCCUCUGCUGACUCCUGGCA | 0.383 |
| AGCAGACAUAGAAGAGCCAAGAGUCCAGGAGGCCCUGGUCCUGGCCUCCUUCCCCGUACUUUGUCCCGUGGCAUUUCAAUUCCUGGCCCUGUUCUCCUCCCCAAGUCGGC | 0.579 |
| GCCCACCUAGCUGGGUUUGGACCUGGAGUGCAGUGGCGUGAACCCUGGUCAGCACAGUCCCCAGCGGAGGCUCAUGGUGUCUCAUUAAACCAUCACAUACCAGUAACUCG | 0.486 |
| UGCUGCAUUGGAGAUCACAUCCUUUCCCUGUGUUGCCCCCAUUUCUCUGCUGCUUCUCUGGCUUGUUUCCUACAGCGGGGGCCUGUGGGAUUGAGUCUUGAGGAAUUCUC | 2.4 |
| AAGCUUAAAUUUUAUAUUAUUUUAAAAUGUCUUGGUCUUCUACUGCCUUGAAAAAUGACAAUUGUGAACACGAUAGUUAACUGUACUACUUUUUAAGCUGUUGUUAUGCA | 1.6 |
| UGGCAUCAUAUAGUCAGUUACUGACAUGGCAUAAGACAGCAUGAAACUUUACCACAUUUAUAAAUAUGAGGGAUUUUUUCUUUUGUUGGUUUUUAACCCUUUUAGACUAA | 1.28 |
| UUUAGGCUUGAGUCCUCAAGCCUCUCCUUUUCGUCCAUAAUAAAAUGUUUAAGUUAUUAAGAUCCUUUUGACGGCUUCUCUCUGCUUCACACUCAUGCUGAUGGCUGAUC | 0.328 |
| GAGAAACUUUUUUCCUACAAAGACCUUGCUUGAAACCACAAAAGUUUUGCUGGCACGAAAGAAACUAGAUGGAAAUAUAUGUAAUUCUCUCAUAUUUAAAAACGUAAUCU | 0.418 |

Sample 3 — method: competition protein-binding microarray; form: double-stranded DNA, one strand shown; medium: in vitro; concentration: 2 µM; together with: Cbf1 competitor, 0.05 µM; reading: higher = stronger binding; constant ends, left off below: … GTCTTGATTCGCTTGACGCTGCTG
Target: Phosphate system positive regulatory protein PHO4, full length, GST-tagged (PHO4, Saccharomyces cerevisiae, UniProt P07270, residues 1-312)
Setting: whole 60-bp probe, lowest competitor level
Target sequence (chain): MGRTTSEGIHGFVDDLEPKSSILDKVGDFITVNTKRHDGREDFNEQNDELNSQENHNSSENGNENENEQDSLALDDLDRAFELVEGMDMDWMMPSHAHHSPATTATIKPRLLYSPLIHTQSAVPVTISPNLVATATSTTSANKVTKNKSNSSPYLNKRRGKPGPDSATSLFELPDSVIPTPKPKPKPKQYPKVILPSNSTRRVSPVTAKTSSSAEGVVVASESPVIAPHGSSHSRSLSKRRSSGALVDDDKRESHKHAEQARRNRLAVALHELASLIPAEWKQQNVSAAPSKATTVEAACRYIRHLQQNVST
| Strand | fluorescence intensity [a.u.] |
| --- | --- |
| AAAGCGGTAATTTGTCACCTAACTTCACATATCTAT | 3360 |
| CTAACGAAGGTTTGTGGGGTGGGTGACAAGCCAAGT | 4820 |
| CGGGGTTAAGTTTGTCACTTAACTTGCTTGCAGCAG | 3210 |
| ACAAAGGCACCAAGCGGCGTGGGACGCTTTCTTGTG | 7530 |
| ATATATATTTCATTGAATGGATATATGAAACGTTTA | 4150 |
| CAATTTGAAGTCCGTCACGGGAGGCAGTTGTTTGGT | 5310 |
| CATACCCAACCTTTTCACGTGCCGTAAGATATTTGT | 15800 |
| CGACTTGGTAGAAAGCACGATCTTCAGTGGAGTTGA | 9700 |
| CATCATCGCATCTTACAGATGTCCCGGTTTCACTTT | 4360 |
| AATAATATATCTCACCACGTGGGACATTGGGCACTT | 20100 |
| CTAACGAAGGTTTGCGAGGTGGGTGACAAGCCAAGT | 3650 |
| CTTTTGTCCAAGTTCCACGTGTCCAAAAATTGGAAA | 15600 |
| CAACTTGATGGTCTACACGTTGTTTCAAGTGCATAC | 11300 |
| CGGCGCTAAACTCTTCACGTGAGGAGTTCACTAGAG | 10300 |
| ACAACAACATTATACAACGTGGTAACCAAATTTTTC | 12200 |
| CACAGCTCCTGCTGACATGTGCCACTCCTGGAATGC | 11000 |
| GTCATTACGGGGGTTCACGTGCGATGGGAAGCTTTT | 15600 |
| CTTCTGTAAATTTTTCACGTGAAGTGAAGCGCCCCG | 7910 |
| ACCAAGCATCAACACCATGTGCATACCATACCGCTA | 10900 |
| GACAATTTGATTTATGACCTGATTCACAGAATTCGC | 3050 |

Sample 4 — method: protein binding microarray; form: double-stranded DNA, one strand shown; medium: in vitro; concentration: not given; reference: not given; reading: higher = stronger binding
Target: Histone acetyltransferase KAT6A, winged helix 2, GST fusion (KAT6A, Homo sapiens, UniProt Q92794, residues 85-181)
Setting: 8-mer, flanks averaged, mean of 2 arrays, mostly near background
Residues (chain): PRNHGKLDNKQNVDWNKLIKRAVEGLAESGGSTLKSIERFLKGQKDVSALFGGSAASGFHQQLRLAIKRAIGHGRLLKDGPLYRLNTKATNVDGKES
| Strand | E-score |
| --- | --- |
| CGAGTGGC | 0.0419 |
| CCAGCCAC | 0.0845 |
| TGAATACA | 0.114 |
| GGGTAAGA | -0.0574 |
| GAAAGAAA | 0.131 |
| GGGTACCA | -0.00843 |
| AGACGTCC | -0.194 |
| CGTGTTAA | 0.0436 |
| CCGCAGTA | 0.0871 |
| CTGCTTAC | -0.0549 |
| AATCATTA | -0.0135 |
| TCGACCCA | 0.00692 |
| AGTCACCG | -0.0995 |
| ATACCTCA | 0.0449 |
| ATGAGTGG | -0.0386 |
| ACCCTAAG | -0.113 |
| CCTGCCAA | -0.116 |
| ATAACAGC | 0.00749 |
| AATGCAGA | 0.13 |
| ACACGCAA | 0.0147 |

Some of these lines once more (sample 4):
| Strand | E-score |
| --- | --- |
| AATCATTA | -0.0135 |
| TCGACCCA | 0.00692 |
| AGTCACCG | -0.0995 |
| ATACCTCA | 0.0449 |
| ATGAGTGG | -0.0386 |
| ACCCTAAG | -0.113 |
| CCTGCCAA | -0.116 |
| ATAACAGC | 0.00749 |
| AATGCAGA | 0.13 |
